Published values pooled from the literature.
± marks the error that the study gave.
ESR1: Estrogen receptor (ESR1, Homo sapiens, UniProt P03372)
APP amyloid-beta peptide: Amyloid-beta precursor protein, amyloid-beta peptide (APP, Homo sapiens, UniProt P05067)

Amino acid sequences for entries named in this document (tags omitted). Residues count along the entry.
UniProt P03372, whole entry: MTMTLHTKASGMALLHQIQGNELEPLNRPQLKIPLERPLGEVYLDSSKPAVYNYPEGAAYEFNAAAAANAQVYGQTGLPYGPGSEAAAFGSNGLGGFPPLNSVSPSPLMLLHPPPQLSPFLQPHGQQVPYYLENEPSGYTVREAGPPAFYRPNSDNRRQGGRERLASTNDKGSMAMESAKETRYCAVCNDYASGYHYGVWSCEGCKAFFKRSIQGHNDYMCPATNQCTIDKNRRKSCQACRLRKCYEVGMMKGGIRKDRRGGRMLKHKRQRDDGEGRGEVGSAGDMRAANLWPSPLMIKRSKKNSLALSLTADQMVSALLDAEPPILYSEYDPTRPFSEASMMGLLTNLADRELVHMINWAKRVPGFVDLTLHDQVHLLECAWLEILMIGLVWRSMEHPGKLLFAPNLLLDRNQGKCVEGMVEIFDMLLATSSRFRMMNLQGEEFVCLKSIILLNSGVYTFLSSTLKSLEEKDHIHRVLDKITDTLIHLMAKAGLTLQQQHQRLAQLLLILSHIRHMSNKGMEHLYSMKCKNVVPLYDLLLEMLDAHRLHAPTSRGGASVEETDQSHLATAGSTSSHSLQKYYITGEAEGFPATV
UniProt P19784, whole entry: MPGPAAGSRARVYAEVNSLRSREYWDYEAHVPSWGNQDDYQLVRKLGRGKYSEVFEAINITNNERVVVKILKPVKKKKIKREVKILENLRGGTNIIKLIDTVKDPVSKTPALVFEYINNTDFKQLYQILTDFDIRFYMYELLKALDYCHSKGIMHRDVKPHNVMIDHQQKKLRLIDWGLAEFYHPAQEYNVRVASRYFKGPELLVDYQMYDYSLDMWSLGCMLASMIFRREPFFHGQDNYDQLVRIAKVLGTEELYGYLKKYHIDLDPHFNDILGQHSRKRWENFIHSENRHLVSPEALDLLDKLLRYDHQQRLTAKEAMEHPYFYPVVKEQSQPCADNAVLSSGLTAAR
UniProt Q9Y253, 1-437 limits assumed: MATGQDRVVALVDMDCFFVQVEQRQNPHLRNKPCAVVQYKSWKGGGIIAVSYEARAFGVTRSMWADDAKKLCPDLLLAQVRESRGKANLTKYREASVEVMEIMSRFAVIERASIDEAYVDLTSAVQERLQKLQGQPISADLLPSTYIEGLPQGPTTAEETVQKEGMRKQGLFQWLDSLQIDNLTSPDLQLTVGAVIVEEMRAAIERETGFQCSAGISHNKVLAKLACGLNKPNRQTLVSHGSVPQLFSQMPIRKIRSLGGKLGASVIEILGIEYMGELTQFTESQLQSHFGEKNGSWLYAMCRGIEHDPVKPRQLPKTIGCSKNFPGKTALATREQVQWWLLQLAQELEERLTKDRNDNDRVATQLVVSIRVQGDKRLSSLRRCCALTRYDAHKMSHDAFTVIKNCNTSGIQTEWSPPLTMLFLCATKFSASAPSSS
UniProt P48775, 19-388 limits assumed: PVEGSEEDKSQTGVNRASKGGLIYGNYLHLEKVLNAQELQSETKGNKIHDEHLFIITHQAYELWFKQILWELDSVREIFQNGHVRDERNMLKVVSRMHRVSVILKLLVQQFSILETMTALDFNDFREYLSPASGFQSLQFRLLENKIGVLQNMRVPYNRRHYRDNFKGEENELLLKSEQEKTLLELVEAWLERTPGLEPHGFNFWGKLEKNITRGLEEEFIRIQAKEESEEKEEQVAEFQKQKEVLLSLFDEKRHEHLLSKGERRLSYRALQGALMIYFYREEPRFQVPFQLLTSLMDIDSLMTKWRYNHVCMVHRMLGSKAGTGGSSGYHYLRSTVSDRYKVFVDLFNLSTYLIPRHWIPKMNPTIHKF
UniProt Q5S007, whole entry: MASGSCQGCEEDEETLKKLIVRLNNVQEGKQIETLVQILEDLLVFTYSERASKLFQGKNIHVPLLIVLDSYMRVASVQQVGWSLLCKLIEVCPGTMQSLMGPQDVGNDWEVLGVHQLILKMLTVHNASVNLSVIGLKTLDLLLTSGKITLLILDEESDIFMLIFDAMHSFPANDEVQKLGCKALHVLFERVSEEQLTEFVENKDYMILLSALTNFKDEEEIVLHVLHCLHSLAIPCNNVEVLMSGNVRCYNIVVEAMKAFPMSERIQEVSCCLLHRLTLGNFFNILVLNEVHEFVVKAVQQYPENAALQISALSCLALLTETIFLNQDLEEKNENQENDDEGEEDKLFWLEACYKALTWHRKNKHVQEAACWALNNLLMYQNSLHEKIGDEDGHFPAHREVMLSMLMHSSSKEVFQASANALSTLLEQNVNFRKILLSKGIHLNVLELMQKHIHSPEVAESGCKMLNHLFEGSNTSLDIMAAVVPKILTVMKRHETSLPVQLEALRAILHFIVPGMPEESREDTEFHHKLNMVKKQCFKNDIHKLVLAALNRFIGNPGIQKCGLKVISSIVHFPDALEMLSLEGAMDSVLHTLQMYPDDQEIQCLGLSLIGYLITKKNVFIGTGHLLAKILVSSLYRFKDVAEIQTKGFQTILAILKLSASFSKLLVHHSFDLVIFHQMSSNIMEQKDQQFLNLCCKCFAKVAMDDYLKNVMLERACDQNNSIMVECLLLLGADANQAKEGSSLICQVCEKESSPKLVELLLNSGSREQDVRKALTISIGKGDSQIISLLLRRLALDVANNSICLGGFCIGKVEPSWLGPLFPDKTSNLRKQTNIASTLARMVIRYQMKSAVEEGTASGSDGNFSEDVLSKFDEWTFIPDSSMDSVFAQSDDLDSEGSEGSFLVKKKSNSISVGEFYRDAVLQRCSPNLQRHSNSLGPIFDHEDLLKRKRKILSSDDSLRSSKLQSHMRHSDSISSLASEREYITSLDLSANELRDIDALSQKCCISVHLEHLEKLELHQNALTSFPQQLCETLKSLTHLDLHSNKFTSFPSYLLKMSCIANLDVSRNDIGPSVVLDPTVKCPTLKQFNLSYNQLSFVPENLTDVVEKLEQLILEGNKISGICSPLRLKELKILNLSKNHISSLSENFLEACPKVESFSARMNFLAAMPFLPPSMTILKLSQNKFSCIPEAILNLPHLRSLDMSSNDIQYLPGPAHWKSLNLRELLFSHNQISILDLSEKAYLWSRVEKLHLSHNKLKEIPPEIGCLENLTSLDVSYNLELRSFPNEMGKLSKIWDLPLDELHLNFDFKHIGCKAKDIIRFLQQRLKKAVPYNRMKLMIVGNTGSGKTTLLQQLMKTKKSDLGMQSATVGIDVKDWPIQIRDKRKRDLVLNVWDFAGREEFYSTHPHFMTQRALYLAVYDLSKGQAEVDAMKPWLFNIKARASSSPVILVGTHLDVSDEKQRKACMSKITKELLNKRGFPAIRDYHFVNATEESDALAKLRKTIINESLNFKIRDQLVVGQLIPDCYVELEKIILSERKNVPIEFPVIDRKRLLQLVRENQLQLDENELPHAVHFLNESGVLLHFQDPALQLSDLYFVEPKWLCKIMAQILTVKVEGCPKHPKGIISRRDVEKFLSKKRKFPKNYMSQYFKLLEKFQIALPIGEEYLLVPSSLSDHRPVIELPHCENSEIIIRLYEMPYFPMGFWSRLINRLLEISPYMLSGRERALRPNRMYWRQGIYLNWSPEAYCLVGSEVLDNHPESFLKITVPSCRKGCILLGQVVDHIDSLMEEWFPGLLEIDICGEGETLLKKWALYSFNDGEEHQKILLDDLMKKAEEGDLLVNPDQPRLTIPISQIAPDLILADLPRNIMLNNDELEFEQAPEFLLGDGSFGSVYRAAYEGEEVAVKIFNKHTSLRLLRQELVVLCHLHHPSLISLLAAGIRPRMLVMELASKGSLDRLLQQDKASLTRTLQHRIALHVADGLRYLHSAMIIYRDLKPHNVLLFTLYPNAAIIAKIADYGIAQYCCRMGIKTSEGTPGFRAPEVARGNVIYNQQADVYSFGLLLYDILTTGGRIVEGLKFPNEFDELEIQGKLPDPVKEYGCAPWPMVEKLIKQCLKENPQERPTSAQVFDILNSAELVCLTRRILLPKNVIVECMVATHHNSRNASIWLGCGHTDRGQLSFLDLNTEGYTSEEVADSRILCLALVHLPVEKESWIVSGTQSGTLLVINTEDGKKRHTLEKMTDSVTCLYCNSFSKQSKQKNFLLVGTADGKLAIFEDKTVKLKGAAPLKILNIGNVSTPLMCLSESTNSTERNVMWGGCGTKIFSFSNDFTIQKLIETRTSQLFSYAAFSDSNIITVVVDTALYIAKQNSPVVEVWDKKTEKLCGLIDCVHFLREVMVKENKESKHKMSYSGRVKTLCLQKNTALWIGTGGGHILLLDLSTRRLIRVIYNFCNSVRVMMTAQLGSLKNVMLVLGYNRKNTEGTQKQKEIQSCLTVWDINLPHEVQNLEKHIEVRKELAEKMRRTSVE
UniProt A0A8I3MXG6, 1-394: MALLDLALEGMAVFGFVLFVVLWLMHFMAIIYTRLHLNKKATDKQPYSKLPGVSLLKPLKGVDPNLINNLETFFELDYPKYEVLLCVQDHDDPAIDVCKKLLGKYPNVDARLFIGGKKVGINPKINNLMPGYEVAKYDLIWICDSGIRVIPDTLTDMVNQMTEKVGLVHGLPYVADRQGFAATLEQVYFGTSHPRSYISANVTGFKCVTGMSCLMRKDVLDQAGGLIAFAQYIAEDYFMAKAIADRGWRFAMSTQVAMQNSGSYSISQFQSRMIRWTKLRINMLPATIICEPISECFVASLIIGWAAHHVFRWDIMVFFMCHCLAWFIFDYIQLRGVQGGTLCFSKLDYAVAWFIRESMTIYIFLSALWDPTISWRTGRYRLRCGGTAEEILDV
UniProt Q04609, whole entry: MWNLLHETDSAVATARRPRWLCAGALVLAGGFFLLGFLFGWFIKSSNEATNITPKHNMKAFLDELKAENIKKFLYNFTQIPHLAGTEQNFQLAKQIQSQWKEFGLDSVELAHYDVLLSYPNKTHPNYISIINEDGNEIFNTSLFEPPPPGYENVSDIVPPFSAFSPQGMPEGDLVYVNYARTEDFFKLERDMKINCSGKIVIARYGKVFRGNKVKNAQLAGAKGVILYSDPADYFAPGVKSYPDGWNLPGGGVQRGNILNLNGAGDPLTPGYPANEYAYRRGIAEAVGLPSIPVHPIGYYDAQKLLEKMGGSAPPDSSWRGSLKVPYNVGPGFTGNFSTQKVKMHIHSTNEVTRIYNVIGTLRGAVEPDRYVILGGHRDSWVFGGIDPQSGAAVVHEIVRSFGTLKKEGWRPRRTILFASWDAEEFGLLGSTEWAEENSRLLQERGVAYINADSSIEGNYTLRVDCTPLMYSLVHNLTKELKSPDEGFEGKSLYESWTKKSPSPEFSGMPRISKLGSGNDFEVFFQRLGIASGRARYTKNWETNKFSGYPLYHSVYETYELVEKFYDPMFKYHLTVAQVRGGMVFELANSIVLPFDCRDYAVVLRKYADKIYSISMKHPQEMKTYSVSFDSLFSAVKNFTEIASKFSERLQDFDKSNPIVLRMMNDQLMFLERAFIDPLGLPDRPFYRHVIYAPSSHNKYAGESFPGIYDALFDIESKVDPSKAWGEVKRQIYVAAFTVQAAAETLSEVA
UniProt Q99759, whole entry: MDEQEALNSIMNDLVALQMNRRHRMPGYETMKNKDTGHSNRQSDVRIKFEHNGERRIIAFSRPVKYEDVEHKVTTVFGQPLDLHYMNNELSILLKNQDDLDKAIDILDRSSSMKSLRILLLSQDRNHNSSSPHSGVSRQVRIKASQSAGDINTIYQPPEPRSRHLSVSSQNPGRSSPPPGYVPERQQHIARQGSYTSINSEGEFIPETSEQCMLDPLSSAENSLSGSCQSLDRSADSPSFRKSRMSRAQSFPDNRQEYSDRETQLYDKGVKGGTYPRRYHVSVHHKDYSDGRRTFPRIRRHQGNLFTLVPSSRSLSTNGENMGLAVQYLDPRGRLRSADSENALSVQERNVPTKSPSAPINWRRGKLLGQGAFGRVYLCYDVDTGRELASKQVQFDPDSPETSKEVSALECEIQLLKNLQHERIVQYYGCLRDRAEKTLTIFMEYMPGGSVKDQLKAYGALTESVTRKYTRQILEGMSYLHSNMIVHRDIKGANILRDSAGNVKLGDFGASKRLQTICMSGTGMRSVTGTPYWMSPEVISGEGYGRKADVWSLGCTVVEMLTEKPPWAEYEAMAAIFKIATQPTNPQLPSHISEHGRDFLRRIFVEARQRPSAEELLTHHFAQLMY
UniProt P28072, whole entry, looked up: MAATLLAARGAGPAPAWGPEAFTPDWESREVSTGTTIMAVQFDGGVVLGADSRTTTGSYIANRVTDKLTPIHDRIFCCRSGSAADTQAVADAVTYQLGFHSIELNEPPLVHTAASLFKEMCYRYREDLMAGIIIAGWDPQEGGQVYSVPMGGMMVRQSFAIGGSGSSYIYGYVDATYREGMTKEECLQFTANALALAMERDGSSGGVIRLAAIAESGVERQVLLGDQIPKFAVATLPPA
UniProt Q99436, whole entry, looked up: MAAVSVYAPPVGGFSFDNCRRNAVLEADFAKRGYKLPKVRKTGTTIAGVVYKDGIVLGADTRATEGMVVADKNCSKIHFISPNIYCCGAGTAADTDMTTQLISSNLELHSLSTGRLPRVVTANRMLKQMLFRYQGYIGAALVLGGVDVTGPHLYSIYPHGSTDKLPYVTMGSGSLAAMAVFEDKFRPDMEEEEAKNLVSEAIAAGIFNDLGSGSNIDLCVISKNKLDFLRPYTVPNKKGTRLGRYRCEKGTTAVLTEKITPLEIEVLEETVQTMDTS

| SMILES | target | assay | test system | setting | IC50 |
| --- | --- | --- | --- | --- | --- |
| CNCCN(C)c1ccc(Nc2cc(NC3CC3)n3ncc(C#N)c3n2)cc1NC(C)=O | CSNK2A2 (Homo sapiens, UniProt P19784) | target engagement, NanoBRET | HEK293 | – | 0.0026 µM |
| O=C1NC(=O)C(=Cc2cn(Cc3ccc4ccccc4c3)c3ccccc23)C(=O)N1 | DNA polymerase eta (POLH, Homo sapiens, UniProt Q9Y253) | DNA polymerase activity, inhibitor, fluorescence | – | with: dTTP 100 µM | 12 µM |
| O=C(CCCCCn1c(=S)[nH]c2ccccc2c1=O)N1CCN(c2ccc(Cl)c(Cl)c2)CC1 | ESR1 | reporter gene, antagonist | HEC-1 cells transfected with ERα | with: estradiol 1 nM | 4.2 µM |
| CCn1cc(NCc2ccccc2)c(C(=O)O)n1 | TDO2 (Homo sapiens, UniProt P48775) | – | – | with: L-tryptophan 400 µM | 262 µM |
| COc1cc(C(=O)N2CCC(N3CCN(C)CC3)CC2)ccc1Nc1ncc2c(n1)N(C(C)C)c1ccccc1C(=O)N2C | LRRK2 (Homo sapiens, UniProt Q5S007) | kinase activity, Adapta | – | – | 0.054 ± 0.004 µM |
| O=C(CC1Cc2ccccc2C1)N[C@H](CN1CCC1)[C@H](O)c1ccc2c(c1)OCCO2 | UGCG (Canis lupus familiaris, UniProt A0A8I3MXG6) | enzyme activity, inhibitor | MDCK cell homogenate membranes | – | 0.112 µM |
| O=C(N/N=C/c1ccc(Sc2ccccn2)s1)c1ccccc1Cl | Protein phosphatase EYA2 (Homo sapiens, UniProt O00167) | tyrosine phosphatase activity, inhibitor | – | – | 4.75 µM |
| COc1ccc(Nc2nnc(NCC(=O)Nc3c(F)cccc3F)s2)cc1 | CD28, with CD80 (Homo sapiens, UniProt P10747) | CD28–CD80 binding, inhibitor, competitive ELISA | – | with: biotinylated CD80 | 71.6 µM |
| O=C(O)CCC(NS(=O)(=O)c1ccccn1)C(=O)O (stereo not shown) | FOLH1 (Homo sapiens, UniProt Q04609) | enzyme activity, inhibitor, HPLC | – | 15 min, pH 7.4, 37 °C, 1% Triton X-100, with: 10 mM glutamate dipeptide substrate | > 100 µM |
| COc1ccc2nc3ccc(OC)cc3c(SCCN)c2c1 | DYRK2 (Homo sapiens, UniProt Q92630) | inhibitor | – | with: Woodtide peptide | 0.29 µM |
| CC(=NNC(=N)N)c1nnn(-c2ccc(C#CC3(O)CCCCC3)cc2)c1C | gyrB (Escherichia coli, UniProt P0AES6) | DNA supercoiling, inhibitor | – | free compound | 29.5 ± 4.1 µg/mL |
| O=C(OC(C(F)(F)F)C(F)(F)F)N1CCC(OC(c2ccc(F)cc2)c2ccc(F)cc2)CC1 | MGLL (Homo sapiens, UniProt Q99685) | inhibitor, fluorescence | – | with: AHMMCE substrate | 0.0228 ± 0.0052 µM |
| O=C(CCCCCn1c(=S)[nH]c2ccccc2c1=O)N1CCN(c2ccc(Cl)cc2)CC1 | ESR1 | reporter gene, coactivator binding inhibitor, luciferase reporter | HEC-1 cells transfected with ERα | partial inhibition, with: estradiol 1 nM | 9.3 µM |
| CS(=O)(=O)Nc1ccc(OC[C@@H](O)CNCCc2ccc(Cl)c(Cl)c2)cc1 | Glutamate NMDA receptor; Grin1/Grin2b (Grin1/Grin2b, Rattus norvegicus, UniProt P35439+Q00960) | – | – | pH 6.9 | 0.036 µM |
| COc1ccc2[nH]cc(/C=C/c3ccc([N+](=O)[O-])cc3F)c2c1 | APP amyloid-beta peptide | Aβ42 oligomerisation, ELISA | – | – | > 20 µM |
| O=C1Nc2cccc(C#CC3(O)CCNCC3)c2/C1=C/c1cc2ccccc2[nH]1 | MAP3K3 (Homo sapiens, UniProt Q99759) | enzyme activity, TR-FRET | – | – | 0.237 µM |
| COC(=O)/C(=C/c1c[nH]c2ccc(C#N)cc12)c1ccc(NS(C)(=O)=O)cc1 | APP amyloid-beta peptide | Aβ42 oligomerisation, ELISA | – | – | > 20 µM |
| CN1CCC[C@@H]1C(=O)N[C@@H](Cc1ccccc1)B(O)O | PSMB6/PSMB7, caspase-like site (Homo sapiens, UniProt P28072+Q99436) | β1c enzyme activity, inhibitor | – | with: Z-LLE-AMC | > 10 µM |
| COc1cccc(C(=O)Nc2ccc(-c3nc4ccccc4s3)cc2)c1 | Moesin, with CD44 (Homo sapiens, UniProt P26038) | MSN-CD44 interaction, inhibitor, TR-FRET | – | with: CD44 | > 100 µM |

Excerpt of the above:
| SMILES | target | assay | test system | setting | IC50 |
| --- | --- | --- | --- | --- | --- |
| O=C(CCCCCn1c(=S)[nH]c2ccccc2c1=O)N1CCN(c2ccc(Cl)cc2)CC1 | ESR1 | reporter gene, coactivator binding inhibitor, luciferase reporter | HEC-1 cells transfected with ERα | partial inhibition, with: estradiol 1 nM | 9.3 µM |
| COC(=O)/C(=C/c1c[nH]c2ccc(C#N)cc12)c1ccc(NS(C)(=O)=O)cc1 | APP amyloid-beta peptide | Aβ42 oligomerisation, ELISA | – | – | > 20 µM |
| O=C1Nc2cccc(C#CC3(O)CCNCC3)c2/C1=C/c1cc2ccccc2[nH]1 | MAP3K3 (Homo sapiens, UniProt Q99759) | enzyme activity, TR-FRET | – | – | 0.237 µM |
